# Assay results of several laboratories.
# Each line is one published result; not all experiments were run side by side. ± gives the spread as reported.
SMILES,tested on,assay,test system,conditions,how to read,measurement,value
CC[n+]1cccc2cc(/C=N/NC(=O)c3cncc(C(=O)N/N=C/c4ccc5c(ccc[n+]5CC)c4)n3)ccc21,MYC parallel G4 DNA,FRET melting,,"1 µM, DNA 0.2 µM, together with: duplex DNA competitor 10 µM",,ΔTm,8.4 ± 0.4 °C
COC1CN([C@H]2CC[C@H]([C@@]3(C)Oc4c(Cl)cc(C(=O)NCc5c(SC)cc(C)[nH]c5=O)c(C)c4O3)CC2)C1,,"RNA-seq, measured: ARFGEF3 mouse homolog","mouse, HT-1376 xenograft, whole blood",dose not given,baseline: vehicle,log2 fold change,1.25
Cc1ccc(C(C)C)c(OCc2ccc(C(=O)N/N=C/c3cccc(O)c3O)cc2)c1,Mus musculus,"gene silencing, high-content imaging",LDR reporter GFP cells,"30 h, confirmation, mean of two runs",,Emax,23%
Cc1ncsc1-c1ccc(C(C)NC(=O)C2CC(O)CN2C(=O)C(NC(=O)CCCCCCCCCCN2CCCC(Nc3ncc(Cl)c(Nc4ccccc4S(=O)(=O)C(C)C)n3)C2)C(C)(C)C)cc1 (stereo not drawn),22Rv1,"RNA-seq, measured: PPP3CB-AS1",,concentration not given,baseline: DMSO,log2 fold change,-1.32
COCC/N=C(\S)N/N=C(\C)c1ccccc1O,Mus musculus,"gene silencing, high-content imaging",LDR reporter GFP cells,"30 h, retest run 1",,Emax,63%
C[n+]1cccc2cc(/C=N/NC(=O)c3cc(C(=O)N/N=C/c4ccc5c(ccc[n+]5C)c4)ncn3)ccc21,hp2 hairpin duplex DNA,FRET melting,,1 µM,,ΔTm,1.1 ± 0.7 °C
CNS(=O)(=O)Nc1nccc(Cc2c(C)c3ccc(Oc4ncccc4F)cc3oc2=O)c1F,HDQ-P1,cell viability,,7 days,,IC50,10.6 nM
CCC(=O)N1CCN(c2ccc(NC(=O)c3ccc([N+](=O)[O-])o3)cc2Cl)CC1,Mus musculus,"gene silencing, high-content imaging",LDR reporter GFP cells,"30 h, confirmation, mean of two runs",,Emax,38%
Nc1ncc(-c2cc(-c3cnn(CC(F)(F)F)c3)ncc2F)nc1C(=O)NC1CNCC(F)C1 (stereo not drawn),STK35,KINOMEscan,,1 µM,baseline: DMSO control,remaining binding,37%
O=C(N/N=C/c1cc[n+](CC2CC2)c2ccccc12)c1ccc2ccc(C(=O)N/N=C/c3cc[n+](CC4CC4)c4ccccc34)nc2n1,hp2 hairpin duplex DNA,FRET melting,,"1 µM, together with: ds26 10 µM",,ΔTm,0.8 ± 0.2 °C
C=CC(=O)N1[C@@H](c2ccc3c(c2)OCO3)c2[nH]c3ccccc3c2C[C@H]1C(=O)N1CCN(C)CC1,human cyclin E1 wild type-3xFLAG:CDK2,"co-IP with TMT proteomics, measured: TUBB",,"concentration not given, P07437",baseline: wild type DMSO,relative co-enrichment,112%
CC[n+]1cccc2cc(/C=N/NC(=O)C(=O)N/N=C/c3ccc4c(ccc[n+]4CC)c3)ccc21,MYC parallel G4 DNA,FRET melting,,"1 µM, DNA 0.2 µM",,ΔTm,3.6 ± 0.4 °C
C=CC(=O)Nc1cccc(Cn2ncc3cnc(Nc4cnn(CCOC)c4)nc32)c1,human MEK1,KINOMEscan,,100 nM,baseline: control,binding,100%
O=C(N/N=C/c1cc[n+](CC2CC2)c2ccccc12)c1cc(C(=O)N/N=C/c2cc[n+](CC3CC3)c3ccccc23)ncn1,MYC parallel G4 DNA,FRET melting,,"1 µM, DNA 0.2 µM",,ΔTm,4.7 ± 0.8 °C
COC1OC(C)C(OC2OC(C)C(OS(=O)(=O)O)C(OC3OC(C)C(OC4OC(C)C(OS(=O)(=O)O)C(OC5OC(C)C(OC6OC(C)C(OS(=O)(=O)O)C(OC7OC(C)C(OC8OC(C)C(OS(=O)(=O)O)C(OS(=O)(=O)O)C8O)C(OS(=O)(=O)O)C7O)C6O)C(OS(=O)(=O)O)C5O)C4O)C(OS(=O)(=O)O)C3O)C2O)C(OS(=O)(=O)O)C1O (stereo not drawn),,,human plasma,128 µg/mL,,prothrombin time,14.2 ± 0.4 s

# A few entries again:
SMILES,tested on,assay,test system,conditions,how to read,measurement,value
Cc1ncsc1-c1ccc(C(C)NC(=O)C2CC(O)CN2C(=O)C(NC(=O)CCCCCCCCCCN2CCCC(Nc3ncc(Cl)c(Nc4ccccc4S(=O)(=O)C(C)C)n3)C2)C(C)(C)C)cc1 (stereo not drawn),22Rv1,"RNA-seq, measured: PPP3CB-AS1",,concentration not given,baseline: DMSO,log2 fold change,-1.32
COCC/N=C(\S)N/N=C(\C)c1ccccc1O,Mus musculus,"gene silencing, high-content imaging",LDR reporter GFP cells,"30 h, retest run 1",,Emax,63%
